Measured values gathered from unrelated publications.
Numbers after ± are the reported error.

For `CC(C)=CCC[C@](C)(O[C@@H]1O[C@H](CO)[C@@H](O)[C@H](O)[C@H]1O)[C@H]1CC[C@]2(C)[C@@H]1[C@H](O)C[C@@H]1[C@@]3(C)CC[C@H](O)C(C)(C)[C@@H]3[C@@H](O[C@@H]3O[C@H](CO)[C@@H](O)[C@H](O)[C@H]3O[C@@H]3O[C@@H](C)[C@H](O)[C@@H](O)[C@H]3O)C[C@]12C`, the CL/F was 310 ± 91.7 mL/min/kg (Sprague Dawley rat, male, plasma; oral, 45 mg/kg, in red ginseng extract).
With `CCN(CC)Cc1cc(Nc2ccnc3cc(Cl)ccc23)ccc1O` the CL/F was 261 ± 27.5 mL/min/kg (rat, Wistar, male, plasma; oral, 60 mg/kg).
`C[C@]12CC[C@@H]3c4ccc(O)cc4CC[C@H]3[C@@H]1C[C@@H](O)[C@@H]2O` — result for “mean serum concentration”: 0.011 ng/mL (GC-MS; breast cancer women on NSAI, serum; vaginal, 0.03 mg, 1 h, day 0).
With `CCOc1ncc(C)c2c1[C@H](c1ccc(C#N)cc1OC)C(C(N)=O)=C(C)N2` the t1/2 alpha was 162 min (human; oral).
Under “plasma protein binding”, `COc1c(C)c2c(c(O)c1C/C=C(\C)CCC(=O)O)C(=O)OC2` is recorded as 95.4 ± 1.1% (equilibrium dialysis; dogs, albumin H1/H1 and H2/H2, plasma; 12.5 µM, 4 h, 37 °C).
`CN[C@H](CC(C)C)C(=O)N[C@H]1C(=O)N[C@@H](CC(N)=O)C(=O)N[C@H]2C(=O)N[C@H]3C(=O)N[C@H](C(=O)N[C@H](C(=O)O)c4cc(O)cc(O)c4-c4cc3ccc4O)[C@H](O)c3ccc(c(Cl)c3)Oc3cc2cc(c3O[C@@H]2O[C@H](CO)[C@@H](O)[C@H](O)[C@H]2O[C@H]2C[C@](C)(N)[C@H](O)[C@H](C)O2)Oc2ccc(cc2Cl)[C@H]1O` — result for “serum total protein”: 6 ± 0.2 g/dL (BALB/c mouse, serum; iv, dose not given).
For `CNCc1ccc(-c2[nH]c3cc(F)cc4c3c2CCNC4=O)cc1`, the Cmax was 261 ng/mL (human patients, plasma; oral, 160 mg once daily, day 1, single dose, arithmetic mean).
`CSc1cc(C)nc(SC)c1NC(=O)CN1CCN(CCSc2nc3ccccc3[nH]2)CC1` has a concentration of 15 ng/g (mouse Crl:CD1 (ICR) female, olfactory bulb; intranasal repeated, 32.4 µg in 0.01 N HCl, 30 min).
For `liraglutide`, “plasma protein binding” read 99.2% (equilibrium dialysis; human plasma 10% diluted; 10 nM, 4 to 5 h, pH 7.4, 37 °C, inner-outer ratio 50:1).
For `CC(C)C[C@H](NC(=O)[C@H](CCCNC(=N)N)NC(=S)Nc1ccc(C[C@H]2CN(CC(=O)O)CCN(CC(=O)O)CCN2CC(=O)O)cc1)C(=O)N[C@@H](CC(N)=O)C(=O)N[C@H](C(=O)NCC(=O)NCC(=O)N[C@H](C(=O)N[C@@H](Cc1ccc(O)cc1)C(=O)N[C@@H](Cc1ccccc1)C(=O)N[C@@H](CC(C)C)C(=O)N[C@H](C(=O)N[C@H](C(=O)N[C@@H](CCCNC(=N)N)C(=O)N[C@@H](CCC(N)=O)C(=O)O)[C@@H](C)O)[C@@H](C)O)[C@@H](C)O)C(C)C` [fluorine-18 labelled], “intact parent radiotracer” read 97.7 ± 2.51% (radio-HPLC; mouse (HepG2 tumour-bearing), HepG2 tumour; intravenous, 5.55 MBq, 1 h).
`O=C(NC[C@H](O)CO)c1ccncc1Nc1ccc(I)cc1F`: “apparent volume of distribution” 265 L (human; oral, 45 mg, single dose alone).
For `NCCCC[C@@H]1NC(=O)[C@@H](Cc2c[nH]c3ccccc23)NC(=O)[C@H](c2ccccc2)NC(=O)[C@@H]2C[C@@H](OC(=O)NCCN)CN2C(=O)[C@H](Cc2ccccc2)NC(=O)[C@H](Cc2ccc(OCc3ccccc3)cc2)NC1=O`, the blood glucose was 173 mg/dL (healthy human volunteers; subcutaneous, 600 µg, 2 h, post-prandial).
For `Cc1ncc([N+](=O)[O-])n1CC(C)O` (stereo not drawn), “conversion to metabolites” read no more than 1% (human liver microsomes; 90 min).
For `des-acyl ghrelin (human)`, the brain/serum ratio was 6.75 µL/g (mouse, Ghsr knockout, cortex; intravenous, 10 min).
The AUC(0-t) of `CC[C@H](C)[C@@H]1NC(=O)[C@H](Cc2ccc(O)cc2)NC(=O)[C@@H](N)CSSC[C@@H](C(=O)N2CCC[C@H]2C(=O)N[C@@H](CC(C)C)C(=O)NCC(N)=O)NC(=O)[C@H](CC(N)=O)NC(=O)[C@H](CCC(N)=O)NC1=O` is reported as 14900 ± 1930 pg·30 min/sample (ELISA; knock-out male mice lacking compound, plasma; intraperitoneal, 12 µg total, total area from zero).
Under “apparent clearance (CL/F)”, `NC1(c2ccc(-c3nc4ccn5c(=O)[nH]nc5c4cc3-c3ccccc3)cc2)CCC1` is recorded as 600 mL/min (human patients, plasma; oral, 90 mg, expansion, dose reduced, with: dinaciclib 9 mg/m^2).
With `CCCC[C@H](NC(=O)CN1CCN(CC(=O)O)CCN(CC(=O)O)CCN(CC(=O)O)CC1)C(=O)N[C@H]1CC(=O)NCCCC[C@@H](C(N)=O)NC(=O)[C@H](Cc2c[nH]c3ccccc23)NC(=O)[C@H](CCCNC(=N)N)NC(=O)[C@@H](Cc2ccccc2)NC(=O)[C@H](Cc2c[nH]cn2)NC1=O` [indium-111 labelled] the liver uptake was 7.5% (B16/F1 melanoma C57 mice, liver; 4 h; reference: 99mTc(CO)3-pz-βAla-Nle-cyclo[Asp-His-D-Phe-Arg-Trp-Lys]-NH2).
`CC(C)(C)OC[C@@H]1C(=O)NCCN1C(=O)C[C@H](N)Cc1cc(F)c(F)cc1F`: “renal clearance at steady state” 250 ± 23.3 mL/min (human; 20 mg once daily, day 10).
`Cc1ncnc2c1c(Cl)cn2[C@@H]1O[C@H](CO)[C@@H](O)[C@H]1O`: “remaining parent compound” 100% (mouse liver microsomes; 0 min, with: NADPH).
For `O=C1N=C(N2CCOCC2)CN1c1ccc(Cl)cc1`, the terminal half-life was 118 min (beagle dog, both sexes, plasma; oral, 30 mg/kg, tablets, fed, day 0).
For `COc1cccc(CN)c1O`, the brain concentration was 92 µM (mouse C57BL/6N male, brain; oral drinking water, 3 g/L/day, 1 week).
The clearance of `CN1CCN(c2ccc(Nc3ncc4cc(C#N)c(=O)n(C5CCCC5)c4n3)cc2)CC1` is reported as 65.6 mL/min/kg (NIH Swiss nude mice, intracerebral U87 tumour, plasma; intravenous, 25 mg/kg, with: gefitinib 200 mg/kg oral 1 h before).
The AUC(0-24) of `CC1=C2C[C@H]3[C@@H](CC[C@@H]4C[C@H](NS(C)(=O)=O)CC[C@@]43C)[C@@H]2CC[C@@]2(C1)O[C@@H]1C[C@H](C)CN[C@H]1[C@H]2C` is reported as 1680 ng·h/mL (patients, plasma; oral, 180 mg single, day -7, cycle 1).
The Cmax median of `Cn1c(-c2ccc(C(N)=O)cc2F)nnc1C(C)(C)Oc1c(F)cc(Cl)cc1F` is reported as 290 ng/mL (healthy young Japanese subjects, plasma; oral, 20 mg once daily, day 18, 14 days dosing).
For `Cc1ccc(NC(=O)c2ccc(CN3CCN(C)CC3)cc2)cc1Nc1nccc(-c2cncc(-c3oncc3C)c2)n1`, the AUC(0-t) was 76600 ng·h/mL (Parkinson's disease patients, plasma; oral, 100 mg once daily, day 7, 7-day dosing, mean).
`CNC(=O)c1cc(Oc2ccc(NC(=O)Nc3ccc(Cl)c(C(F)(F)F)c3)cc2)ccn1` gave a t1/2 of 1590 ± 472 min (LC-MS/MS; nude mice, HepG2 subcutaneous tumour, tumour; intratumoral, 20 µL per tumour, miR-140-3p plus PXR mutant).
`Cc1nc2cccc(OCC(C)(C)C(=O)NC(C)C)c2c(N)c1C(=O)O` has a Tmax of 12 h (female Sprague-Dawley rat, plasma; dietary, 100 mg/kg/day, day 90).
With `Cc1ccc(N2CCN(CC(O)COc3ccccc3C(=O)CCc3ccccc3)CC2)cc1` (stereo not drawn) the scaled CLint was 37.6 mL/min/kg (metabolic stability; human, liver microsomes; 20 µM, pH 7.4).
`COc1cc2c(Oc3ccc4[nH]c(C)cc4c3F)ncnc2cc1OCCCN1CCCC1`: “AUC, steady state” 1210 ng·h/mL (human patients, plasma; oral, 30 mg, cycle 2 day 1, geometric mean, with: pemetrexed).
Under “plasma AST activity”, `CC1(C)Oc2cc3oc(=O)ccc3cc2C[C@@H]1O` is recorded as 79.5 ± 19.7 U/L (male CD-1 mouse, plasma; oral gavage, 80 mg/kg daily, 4 weeks).
`CCCOc1ccc([C@H]2CNC(=O)N2c2ccc3[nH]cnc3c2)cc1` has a Cmax of 3440 ng/mL (human, plasma; oral, 800 mg, single dose, fasted, healthy volunteers).
The half-life of `O=C(c1ccc2ncc(-c3ccc4cnccc4c3)nc2c1)N1CCCCC1` is reported as 11 min (ICR/CD-1 mouse, female, liver S9; 2 µM, pH 7.5).
With `O=c1cc(-c2ccc(O)cc2)oc2cc(O)cc(O)c12` the precipitation concentration was greater than 1000 µM (phosphate buffer; pH 6.8, added from DMSO stock).

Repeated from above:
For `Cc1ccc(NC(=O)c2ccc(CN3CCN(C)CC3)cc2)cc1Nc1nccc(-c2cncc(-c3oncc3C)c2)n1`, the AUC(0-t) was 76600 ng·h/mL (Parkinson's disease patients, plasma; oral, 100 mg once daily, day 7, 7-day dosing, mean).
The AUC(0-24) of `CC1=C2C[C@H]3[C@@H](CC[C@@H]4C[C@H](NS(C)(=O)=O)CC[C@@]43C)[C@@H]2CC[C@@]2(C1)O[C@@H]1C[C@H](C)CN[C@H]1[C@H]2C` is reported as 1680 ng·h/mL (patients, plasma; oral, 180 mg single, day -7, cycle 1).
Under “plasma AST activity”, `CC1(C)Oc2cc3oc(=O)ccc3cc2C[C@@H]1O` is recorded as 79.5 ± 19.7 U/L (male CD-1 mouse, plasma; oral gavage, 80 mg/kg daily, 4 weeks).
With `CCCC[C@H](NC(=O)CN1CCN(CC(=O)O)CCN(CC(=O)O)CCN(CC(=O)O)CC1)C(=O)N[C@H]1CC(=O)NCCCC[C@@H](C(N)=O)NC(=O)[C@H](Cc2c[nH]c3ccccc23)NC(=O)[C@H](CCCNC(=N)N)NC(=O)[C@@H](Cc2ccccc2)NC(=O)[C@H](Cc2c[nH]cn2)NC1=O` [indium-111 labelled] the liver uptake was 7.5% (B16/F1 melanoma C57 mice, liver; 4 h; reference: 99mTc(CO)3-pz-βAla-Nle-cyclo[Asp-His-D-Phe-Arg-Trp-Lys]-NH2).
